Measurements of several laboratories.
Every numbered part comes from another study and shows a few of its results, in no order. Changes are numbered by the printed parent chain.

Series 1
Target: PABPC1L2, full length, GST fusion (mouse, UniProt A0ABA7IW68)
Technique: RNAcompete
Form: RNA
Sample: in vitro
Concentration: 20 nM
Notes: 7-mer, probes averaged, single round
Relative to: mean of 7-mers
Reading: higher = stronger binding
Measurement: 7-mer Z-score
Residues (chain): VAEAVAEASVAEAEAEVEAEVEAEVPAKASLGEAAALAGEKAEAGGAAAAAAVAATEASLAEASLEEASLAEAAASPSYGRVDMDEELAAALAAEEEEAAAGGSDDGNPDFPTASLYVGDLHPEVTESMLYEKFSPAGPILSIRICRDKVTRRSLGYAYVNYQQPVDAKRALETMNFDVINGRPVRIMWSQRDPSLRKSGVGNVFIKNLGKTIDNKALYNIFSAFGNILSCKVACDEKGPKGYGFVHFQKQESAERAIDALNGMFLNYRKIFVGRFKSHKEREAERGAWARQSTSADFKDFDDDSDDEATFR
UCUUACA: -0.224
GGGUUAC: 0.0189
GGAACAG: 0.285
CUAGGUG: -0.0482
AACGCCC: 0.0442
GGGGCCU: 0.113
AGGCAAG: 0.316
AAGGGAU: 0.586

Series 2
Target: CCNE1, cyclin fold, Cln2 fusion (human)
Technique: yeast growth competition, sequencing
Sample: yeast
Notes: strong parent motif
Relative to: not given
Reading: higher = stronger binding
Measurement: normalised enrichment score
Starting sequence: viral docking peptide; KGVKRKLFAEDSS
KGVKRKLQAEDSS [F8Q]: 0.554
KGVKRKDFAEDSS [L7D]: -0.0326
KQVKRKLFAEDSS [G2Q]: 7.26
KGVKRKLFAEDHS [S12H]: 7.15
KGAKRKLFAEDSS [V3A]: 7.7
KGVKRKLFNEDSS [A9N]: 6.87
KGRKRKLFAEDSS [V3R]: 0.347
KGVKRKLFAEASS [D11A]: 7.29
KGMKRKLFAEDSS [V3M]: 1.68
KGVKRKLFAADSS [E10A]: 7.25

Series 3
Target: UBE2W UBC core domain (UniProt Q96B02)
Sequence of UniProt Q96B02 (whole entry, looked up): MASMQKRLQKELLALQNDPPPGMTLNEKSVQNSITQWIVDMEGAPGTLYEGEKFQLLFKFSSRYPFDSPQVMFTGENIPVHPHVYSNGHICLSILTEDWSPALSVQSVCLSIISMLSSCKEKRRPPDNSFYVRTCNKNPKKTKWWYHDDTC
Technique: yeast two-hybrid
Sample: yeast
Notes: mostly zero background
Relative to: not given
Reading: higher = stronger interaction
Measurement: lacZ reporter activity
B1: RNF152 RING domain (UniProt Q8N8N0); chain ETLSQDSLLECQICFNYYSPRRRPKLLDCKHTCCSVCLQQMRTSQKDVRCPWCRGVTKLPPGFS
B2: TRIM22 RING domain (UniProt Q8IYM9); chain VKVDIEKEVTCPICLELLTEPLSLDCGHSFCQACITAKIKESVIISRGESSCPVCQTRFQPGNLRP
B3: RNF166 RING domain (UniProt Q96A37); chain GDSGLEAQYTCPICLEVYHRPVAIGSCGHTFCGECLQPCLQVPSPLCPLCRLPFDPKKVDK
B4: TRIM37 RING domain (UniProt O94972); chain SVESIAEVFRCFICMEKLRDARLCPHCSKLCCFSCIRRWLTEQRAQCPHCRAPLQLRELVN
B5: DEF8 RING domain (UniProt Q6ZN54); chain AGRLGCSLTEIHTLFAKHIKLDCERCQAKGFVCELCREGDVLFPFDSHTSVCADCSAVFHRDCYYDNSTTCPKCARLSLRK
YCEMGSTFQLCKICAENDKDVKIEPCGHLMCTSCLTAWQESDGQGCPFCRCEIKGTEPII (CBLB RING domain (UniProt Q13191)): 0
YPEEVDDDLICHICLQALLDPLDTPCGHTYCTLCLTNFLVEKDFCPMDRKPLVLQHCKK (LNX1 RING domain (UniProt Q8TBB1)): 0
B1 (RNF152 RING domain): 7670
B2 (TRIM22 RING domain): 0
MNDVLENELQCIICSEYFIEAVTLNCAHSFCSYCINEWMKRKIECPICRKDIKSKTYSL (RNF8 RING domain (UniProt O76064)): 0
B3 (RNF166 RING domain): 0
LGTKLEAKYLCSACRNVLRRPFQAQCGHRYCSFCLASILSSGPQNCAACVHEGIYEEGIS (TRAF2 RING domain (UniProt Q12933)): 0
LDAASGHPLVCPLCHGQYERPCLLDCFHDFCTGCLRGRATDGRLSCPLCQHQTLVKGPSG (Rnf207 RING domain (UniProt Q3V3A7)): 0
B4 (TRIM37 RING domain): 0
B5 (DEF8 RING domain): 0

Series 4
Target: ABI1, truncated, D143A, DHFR fusion (Arabidopsis thaliana)
Technique: DHFR PCA, deep sequencing
Sample: yeast
Notes: methotrexate growth selection, single substitutions
Added: (+)-ABA 0 µM
Relative to: wild-type fitted maximum
Reading: higher = stronger binding
Measurement: relative binding score
Starting sequence: PYL1, truncated, DHFR fusion (Arabidopsis thaliana); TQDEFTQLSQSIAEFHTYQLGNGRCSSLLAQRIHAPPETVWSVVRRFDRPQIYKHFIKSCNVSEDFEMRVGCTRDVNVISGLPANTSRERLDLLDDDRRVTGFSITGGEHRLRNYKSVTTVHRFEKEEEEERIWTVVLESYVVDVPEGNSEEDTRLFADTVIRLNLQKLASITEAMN
I162T: 9.93%
V145D: -2.06%
G21M: 11.2%
R74K: 2.29%
F124Y: 19.2%
T135C: 6%
H110C: 23.4%
L156A: 5.63%

Some of these lines once more (series 2):
KGVKRKLFAEDHS [S12H]: 7.15
KGAKRKLFAEDSS [V3A]: 7.7
KGVKRKLFNEDSS [A9N]: 6.87
